Assay results from different studies.
A part holds a random share of what one study measured. Changes are numbered by the printed parent chain.

Sample 1
Target: RING finger protein unkempt homolog, zinc fingers 1-6, GST-SBP tag (UNK, Homo sapiens, UniProt Q9C0B0, residues 30-357)
Chain of UniProt Q9C0B0 (30-357, looked up): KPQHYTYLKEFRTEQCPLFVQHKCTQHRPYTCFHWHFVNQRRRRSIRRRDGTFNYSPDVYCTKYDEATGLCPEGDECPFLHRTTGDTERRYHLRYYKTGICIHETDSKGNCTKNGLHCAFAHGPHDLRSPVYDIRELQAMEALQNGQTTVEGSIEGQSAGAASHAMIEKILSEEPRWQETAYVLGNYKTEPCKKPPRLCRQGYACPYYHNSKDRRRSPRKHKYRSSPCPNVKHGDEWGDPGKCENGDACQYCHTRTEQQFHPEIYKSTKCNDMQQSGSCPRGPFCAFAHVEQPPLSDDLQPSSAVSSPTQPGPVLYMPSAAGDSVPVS
Technique: RNA Bind-n-Seq
Molecule type: RNA
Matrix: in vitro
Concentration: not given
Setting: RNA with constant flanks, human-mouse chimeric sites, ends assumed
Baseline: input RNA pool
Direction: higher = stronger binding
Constant ends, left off below: GGGAGUUCUACAGUCCGACGAUC … CAACAGAGGAUUGAGCAUCA
Strand	bound/input enrichment
GGGUGGGGGUUGUCAUUCGUUUGAGCUGCUGAUUUUCAUGAGUCGCCUUCAAAACUCUCGUGUAGGGUUGACAAUGUGGGGGGGUGGGGGAUCCAGCUUAUUCUUUUAUUUUCAAGUCCA	0.578 ratio
AAAUCAUGUGUGUCCAAUAUUGAAAGUACUUUAUCUGCACUCCAGUAUGUAAGCAGUAUAGUAGUUUCUUUAGAGAAUAGGUCAGCCAUUGUAAAGUACAAUGCAAGCUUAGUCACUCCA	3.02 ratio
GAUCCACAGUGGUCUGAGGAGCAACUCAUUGCUGCAAAAUUCUGUUUUGCUGGACUUGUUAUAGGGCAGACUGAAGUGGACAUCAUGAGUCAUGCCACACAGGCUAUUUUUGAAAUUCUG	0.209 ratio
AGAUUCCCCCUCCUGAGGCCUUCUCCAAAAUUGGCAUCUCUUACAGAUGCCUCAUCCCCUGUUAGCGUUUUAGUUUGGACCACCCAGCCUUGGACAAUUCCCGCCAACCAGGCAAUUUGC	0.913 ratio
GAGCGUCUUGCCCGCACUGGGAUCAUCGUGACCACUAGUGAGGCUGUUCUGCUUCAGCUGGUGGCUGACAAAGACCAUCCAAAAUUCAAGGAAAUUCAGAACCUAAUUAAGGCGAGUGCC	0.122 ratio
CUGGCACUCUAUCAGAUAGAUUACUUUUUUAAUGUAGAUGUAAUUUUAAAAAUGAAUGGCUACUUUACACGUUUAACUAGGGUUUUACUAUAUAUGUGUACAUAUGUAUAUAUAUAUAUA	19.4 ratio
CUGUGUGUGCUGAAUAAAUGGCUUGUAAAGAAGUUUUUCCAAGCUGUACCCAUGUACGUUAUUAUAGUUGCUGCAAAAUGUUCUUCCUGAUAUUGAUUUUAUUUGUUAACUGAAGGUCUC	0.646 ratio
AAAGCCCAAGUAUUUUGAAAAAAUUCAAACAGAUUUAACAAGGGUAGCCAGCUUGGAGUCUAGCAACUUGCCAAUGUGUUUACCAAUCUGGGGGCUUGUUUUUCUUUUCUUCUUUCAAAU	0.346 ratio
CUCAGAGAUGUGGCAUAUCAAUAUGUGAAAAAGGGGGCUCGUAUAUUUGUGGAAGGGAAAGUGGACUAUGGCGAGUACAUGGAUAAAAACAAUGUGAGGCGACAAGCAACAACAAUCAUA	0.308 ratio
CCUGCUCAGAUCACCAUGAAAGUAAUCCAAGGCUUGUAUAGUGGGGUCACCACAGUGGAACUGGACACUUUGGCUGCUGAGACAGCCGCGACCUUGACCACGAAGCACCCUGACUAUGCC	0.138 ratio
GAUCCACAGUGGUCUGAGGAGCAACUCAUUGCUGCAAAAUUUUGCUUUGCUGGCCUUGUUAUAGGGCAGACUGAAGUGGACAUCAUGAGUCAUGCCACACAGGCUAUUUUUGAAAUUCUG	0.15 ratio

Sample 2
Target: Sal-like protein 4, full length isoform B (SALL4, Homo sapiens, UniProt Q9UJQ4-2, residues 1-616)
Technique: universal PBM
Molecule type: double-stranded DNA, one strand shown
Matrix: in vitro
Concentration: not given
Setting: 8-mer, flanks averaged, mean of replicates
Direction: higher = stronger binding
Construct (chain): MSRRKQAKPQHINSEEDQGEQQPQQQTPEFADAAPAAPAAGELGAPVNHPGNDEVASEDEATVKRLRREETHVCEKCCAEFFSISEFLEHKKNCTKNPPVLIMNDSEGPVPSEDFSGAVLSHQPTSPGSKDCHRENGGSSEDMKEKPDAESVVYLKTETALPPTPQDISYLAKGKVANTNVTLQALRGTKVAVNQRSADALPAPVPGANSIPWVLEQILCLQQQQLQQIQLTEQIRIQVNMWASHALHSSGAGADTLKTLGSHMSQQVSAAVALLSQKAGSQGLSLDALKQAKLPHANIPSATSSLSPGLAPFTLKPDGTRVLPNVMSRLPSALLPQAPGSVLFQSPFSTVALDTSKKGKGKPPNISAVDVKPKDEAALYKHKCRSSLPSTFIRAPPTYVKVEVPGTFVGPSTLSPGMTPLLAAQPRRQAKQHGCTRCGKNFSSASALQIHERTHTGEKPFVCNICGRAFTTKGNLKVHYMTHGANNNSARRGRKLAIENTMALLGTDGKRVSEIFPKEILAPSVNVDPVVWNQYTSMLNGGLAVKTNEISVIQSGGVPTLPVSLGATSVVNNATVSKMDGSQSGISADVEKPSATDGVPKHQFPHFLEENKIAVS
Strand	E-score
ATGGTTCA	0.0902
CACCGGAG	-0.277
ATCACCTG	-0.0751
GAACACCA	-0.0342
CTTCCGGA	-0.225
ACCCTGTA	3e-05
ACCCTCCC	-0.139
AATTACAC	0.2
ACCCACCC	-0.0969
GATCAGGC	-0.0876
GGGCGCAC	-0.296
TCGCAAGA	-0.125
CCTCCTCA	-0.125
GACAAGTC	-0.0756
TAAAAGTA	0.275
AATCACAA	0.137
CCATATTA	0.343
GTTTTCTA	0.143
AGAAGGAT	0.0304

Sample 3
Target: Histone acetyltransferase KAT6A, both winged helices, GST fusion (KAT6A, Homo sapiens, UniProt Q92794, residues 1-181)
Technique: protein binding microarray
Molecule type: double-stranded DNA, one strand shown
Matrix: in vitro
Concentration: not given
Setting: 8-mer, flanks averaged, mean of 2 arrays, mostly near background
Baseline: not given
Direction: higher = stronger binding
Target sequence (chain): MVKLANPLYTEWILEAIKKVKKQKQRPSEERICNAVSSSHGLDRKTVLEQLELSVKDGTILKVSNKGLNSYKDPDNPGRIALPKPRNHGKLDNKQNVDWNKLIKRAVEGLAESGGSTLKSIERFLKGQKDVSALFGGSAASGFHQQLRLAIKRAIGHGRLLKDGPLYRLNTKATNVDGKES
Strand	E-score
CTTCATGA	0.0605
CTTAGCGC	0.274
CAGTGCAC	-0.0883
AATTTAAA	-0.177
AATAGTGG	-0.102
AAACCGAG	0.129
CTAGTGAC	-0.0758
TATATCAA	0.0375
GTCCGTAA	0.227
ATCATCCC	-0.0728
CGGGGAGC	0.173
CTAGCGTA	0.065
CCCCGTAA	0.0344
CCCACCTA	-0.17
ACCACTAT	-0.121
TTCAGAAA	-0.142
GTGTTAAA	-0.0796
CCTCTGAC	-0.109
GTCTGGGA	-0.183
TCAGCACA	-0.157
ACCCAATG	-0.0561
CTTAATAC	-0.0869
AATACCCA	-0.182
AAAGTGCG	0.0932
CCCTATAG	-0.127

Sample 4
Target: ATF5, bZIP domain (human)
Technique: DHFR protein complementation
Matrix: yeast
Setting: single substitutions, most at no-binding floor
Baseline: wild-type JUN-FOS pair
Direction: higher = stronger binding
Starting sequence: JUN, bZIP domain (human); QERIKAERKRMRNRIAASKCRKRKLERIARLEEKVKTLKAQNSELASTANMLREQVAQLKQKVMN; partner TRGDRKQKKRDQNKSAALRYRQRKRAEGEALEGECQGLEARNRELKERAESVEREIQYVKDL
Change	binding fitness
A57S	-1.57 natural log
N42Y	-1.52 natural log
S47P	-1.44 natural log
Q41E	-1.33 natural log
M51G	-1.29 natural log
R53N	-1.44 natural log
L38F	-1.56 natural log
L38E	-1.53 natural log
E33N	-1.49 natural log
L38A	-1.53 natural log
E54W	-1.48 natural log
E44I	-1.43 natural log
A57W	-1.39 natural log
L38T	-1.4 natural log
A49L	-1.33 natural log
L31H	-1.35 natural log
V35L	-1.51 natural log

Sample 5
Target: CCND1, cyclin fold, Cln2 fusion (human)
Technique: yeast growth competition, sequencing
Matrix: yeast
Setting: strong parent motif
Baseline: not given
Direction: higher = stronger binding
Starting sequence: PKN2 docking peptide (human); VSAVQKLDFSDTM; partner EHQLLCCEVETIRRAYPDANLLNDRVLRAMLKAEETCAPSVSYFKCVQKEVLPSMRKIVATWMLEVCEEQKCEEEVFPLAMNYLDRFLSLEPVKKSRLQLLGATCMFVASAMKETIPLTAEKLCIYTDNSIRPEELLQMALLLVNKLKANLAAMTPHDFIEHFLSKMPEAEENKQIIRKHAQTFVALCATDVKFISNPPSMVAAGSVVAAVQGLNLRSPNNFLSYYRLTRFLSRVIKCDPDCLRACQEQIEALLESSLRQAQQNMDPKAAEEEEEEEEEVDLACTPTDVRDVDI
Change	normalised enrichment score
VSAVQKLDPSDTM [F9P]	0.123
VSAVQKLDFDDTM [S10D]	1.62
VSANQKLDFSDTM [V4N]	0.463
VSAVQKLDKSDTM [F9K]	0.191
VSAVQKLLFSDTM [D8L]	0.478
MSAVQKLDFSDTM [V1M]	2.09
VSAVQKYDFSDTM [L7Y]	0.298
VSAIQKLDFSDTM [V4I]	2.75
VSAVQKLCFSDTM [D8C]	0.726
VSAVQKLYFSDTM [D8Y]	1.22
YSAVQKLDFSDTM [V1Y]	2.52
VSAVQELDFSDTM [K6E]	0.549
VSARQKLDFSDTM [V4R]	1.22
VSAVQKLDFSDCM [T12C]	2.3
VSNVQKLDFSDTM [A3N]	0.335
VSAVQKLTFSDTM [D8T]	1.74
VSAKQKLDFSDTM [V4K]	0.625
VSAVQKLDFSITM [D11I]	1.04

Sample 6
Target: ABI1, truncated, D143A, DHFR fusion (Arabidopsis thaliana)
Technique: DHFR PCA, deep sequencing
Matrix: yeast
Setting: methotrexate growth selection, single substitutions
Together with: (+)-ABA 2500 µM
Baseline: wild-type fitted maximum
Direction: higher = stronger binding
Starting sequence: PYL1, truncated, DHFR fusion (Arabidopsis thaliana); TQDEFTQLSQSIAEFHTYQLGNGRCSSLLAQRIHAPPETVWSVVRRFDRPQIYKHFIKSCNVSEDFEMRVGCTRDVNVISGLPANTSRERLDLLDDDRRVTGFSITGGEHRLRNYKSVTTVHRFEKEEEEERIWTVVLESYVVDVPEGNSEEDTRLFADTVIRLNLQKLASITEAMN; partner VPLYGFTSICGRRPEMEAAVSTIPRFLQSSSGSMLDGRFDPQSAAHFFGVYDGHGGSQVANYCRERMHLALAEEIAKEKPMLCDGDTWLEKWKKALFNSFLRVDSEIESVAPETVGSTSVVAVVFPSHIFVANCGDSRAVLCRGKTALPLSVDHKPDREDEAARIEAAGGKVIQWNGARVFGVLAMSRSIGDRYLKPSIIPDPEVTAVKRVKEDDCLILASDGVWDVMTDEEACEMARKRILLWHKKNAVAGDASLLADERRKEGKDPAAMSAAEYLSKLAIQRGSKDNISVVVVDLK
Change	relative binding score
V136K	65.4%
E152A	96%
G21F	96.2%
I33F	66.8%
N22S	104%
R123Y	104%
S87C	91.9%
Q31W	83.9%
R46A	92%
S80C	69.1%
R32Q	98.2%
Y141D	-8.14%
D75H	97.6%
S87T	90.6%
K116C	101%
I133P	103%

For quick reference, copied from above (sample 3):
Strand	E-score
CCTCTGAC	-0.109
TTCAGAAA	-0.142
AAAGTGCG	0.0932
GTCTGGGA	-0.183
CTAGCGTA	0.065
ATCATCCC	-0.0728
AAACCGAG	0.129
